Experimental data pooled from the literature.

With CNS(=O)(=O)Nc1nccc(Cc2c(C)c3ccc(Oc4ncccc4F)cc3oc2=O)c1F the IC50 was over 1 µM (SK-PN-DW; cell viability, CellTiter-Glo; 7 days).
With CCN(C(=O)c1cc(F)ccc1Oc1nncnc1N1CCC2(C1)CN([C@H](CCCN(C)CCOC)C(C)C)C2)C(C)C the GI50 was over 10 µM (TE-671; muscle; 72 h).
c1ccc(-c2n[nH]cc2-c2ccnc3ccccc23)nc1 — result for “log2 fold change”: -0.11 (TPK2 (Candida albicans); kinase binding, MIB/MS competition; Candida albicans lysate; 1 µM; reference: DMSO).
For Cn1ncc2cc(-c3cncc(Cl)c3N3CCC4(CCNC4=O)CC3)ccc21, “log2 fold change” read -1.27 (LS174T; gene expression, microarray, refers to: TNFRSF12A mRNA; concentration not given, 4 h; reference: untreated cells).
CN1CCCNC(=O)c2cccc(c2)C(=O)NCCCN(C)CCCNc2cccc3c2C(=O)c2cccc(c2C3=O)NCCC1: “log2 fold change” -1.52 (SAS; RNA-Seq, refers to: STXBP5 mRNA; 1 µM, 6 h; reference: untreated cells).
For Nc1ncc(-c2cc(-c3cnn(CC(F)(F)F)c3)ncc2F)nc1C(=O)NC1CNCC(F)C1 (stereo not shown), the remaining binding was 92% (CDK3; KINOMEscan; 1 µM; reference: DMSO control).
C=CC(=O)Nc1cccc(Cn2ncc3cnc(Nc4cnn(CCOC)c4)nc32)c1: “percent of control” 100% (PKMYT1 human; binding, KINOMEscan; 100 nM; lower = stronger binding).
For Cc1ncsc1-c1ccc(C(C)NC(=O)C2CC(O)CN2C(=O)C(NC(=O)CCCCCCCCCCN2CCCC(Nc3ncc(Cl)c(Nc4ccccc4S(=O)(=O)C(C)C)n3)C2)C(C)(C)C)cc1 (stereo not shown), “log2 fold change” read -1.19 (22Rv1; RNA-seq, refers to: TESMIN mRNA; concentration not given; reference: DMSO).
CCN(CC)CC(=O)Nc1cccc(-n2cc(-c3ccc4ccc(-c5cn(-c6cccc(NC(=O)CN(CC)CC)c6)nn5)cc4c3)nn2)c1 gave a fold regulation of -1.04 (RCC4; PCR angiogenesis array, refers to: ITGB3; 5 x IC50, 2 h, normoxia; reference: untreated).
Under “log2 fold change”, COC1CN([C@H]2CC[C@H]([C@@]3(C)Oc4c(Cl)cc(C(=O)NCc5c(SC)cc(C)[nH]c5=O)c(C)c4O3)CC2)C1 is recorded as 1.22 (RNA-seq, refers to: DNASE2; human, whole blood; dose not given, 24 h; reference: pretreatment baseline).

For quick reference, copied from above:
With CCN(C(=O)c1cc(F)ccc1Oc1nncnc1N1CCC2(C1)CN([C@H](CCCN(C)CCOC)C(C)C)C2)C(C)C the GI50 was over 10 µM (TE-671; muscle; 72 h).
